{"data": "Measurements of several laboratories", "note": "Each line is one published result; not all experiments were run side by side. Numbers after ± are the reported error."}
{"SMILES": "[O-][N+]1=C(c2ccsc2)C2=NCCCN2c2ccccc21", "target or system": "Fusobacterium nucleatum", "quantity": "MIC", "value": "0.06 to 1 µg/mL"}
{"SMILES": "Cc1c(CN(C)C(=O)/C=C/c2cnc3c(c2)CC(N)C(=O)N3)oc2ccccc12 (centres unmarked)", "target or system": "Escherichia coli", "test system": "MG1655 FabI A116V resistant", "quantity": "MIC", "value": "64 µg/mL"}
{"SMILES": "CCCCCCCC(=O)NCCCC[C@H](NC(=O)CCCCCCC)C(=O)N[C@@H](CCCCNC(=O)CCCCCCC)C(=O)NCC(=O)NCC(=O)NCC(=O)N[C@@H](CS)C(=O)N[C@@H](CCCNC(=N)N)C(=O)N[C@@H](CCCCN)C(=O)N1CCC[C@H]1C(N)=O", "target or system": "Candida albicans", "test": "broth microdilution", "test system": "SP 3876, RPMI-1640", "conditions": "48 h, 30 °C", "quantity": "MIC", "value": "> 128 µM"}
{"SMILES": "CC1(C)S[C@@H]2[C@H](NC(=O)[C@H](NC(=O)C3=C(O)C(c4ccccc4F)NC3=O)c3ccccc3)C(=O)N2[C@H]1C(=O)O (some centres unmarked)", "target or system": "Escherichia coli", "test": "broth microdilution", "test system": "Keio mutant JW0146-2", "conditions": "18 h, ferric hydroxamate uptake gene", "quantity": "MIC", "value": "12.5 µg/mL"}
{"SMILES": "CCCCCCn1cc[n+](CCCCCCOc2cc(OCCCCCC[n+]3ccn(CCCCCC)c3)cc(OCCCCCC[n+]3ccn(CCCCCC)c3)c2)c1.[Br-].[Br-].[Br-]", "target or system": "eight bacterial strains", "quantity": "MIC", "value": "≤ 2 µM"}
{"SMILES": "CC[C@H](C)[C@H](NC(=O)[C@H](Cc1c[nH]c2ccccc12)NC(=O)[C@H](Cc1ccc(O)cc1)NC(=O)[C@H](CCCCN)NC(=O)[C@H](CC(C)C)NC(=O)[C@H](CO)NC(=O)[C@@H](N)Cc1ccccc1)C(=O)N[C@@H](CCCNC(=N)N)C(=O)N[C@@H](Cc1ccc(O)cc1)C(=O)N[C@@H](CCCCN)C(=O)N[C@@H](CCCNC(=N)N)C(=O)N[C@@H](CCC(N)=O)C(=O)NCC(=O)N[C@@H](C)C(=O)N[C@@H](C)C(=O)N[C@@H](CCCNC(=N)N)C(=O)N[C@@H](Cc1ccccc1)C(N)=O", "target or system": "Listeria monocytogenes", "test": "broth dilution", "test system": "KCTC 13064", "quantity": "MIC", "value": "100 µM"}
{"SMILES": "CC(C)CCCCCCCCC/C=C/C(=O)N[C@@H](CC(=O)O)C(=O)N[C@H]1CNC(=O)[C@@H]2CCCN2C(=O)[C@H](C(C)C)NC(=O)[C@@H](CN)NC(=O)CNC(=O)[C@H](CC(=O)O)NC(=O)CNC(=O)[C@H](CC(=O)O)NC(=O)[C@H](CC(=O)O)NC(=O)[C@H]2CCCCN2C1=O", "target or system": "Staphylococcus simulans", "test": "broth microdilution", "test system": "22, Mueller-Hinton broth, Mg2+ 10 mg/L", "conditions": "16 h, 30 °C, together with: Ca2+ 10 mM", "quantity": "MIC", "value": "2 µg/mL"}
{"SMILES": "CCCCCCCC(=O)NCCCC[C@H](NC(=O)CCCCCCC)C(=O)N[C@@H](CCCCNC(=O)CCCCCCC)C(=O)NCC(=O)NCC(=O)NCC(=O)N[C@@H](CS)C(=O)N[C@@H](CCCNC(=N)N)C(=O)N[C@@H](CCCCN)C(=O)N1CCC[C@H]1C(=O)N[C@@H](CS)C(=O)N[C@@H](CCCNC(=N)N)C(=O)N[C@@H](CCCCN)C(=O)N1CCC[C@H]1C(=O)N[C@@H](CS)C(=O)N[C@@H](CCCNC(=N)N)C(=O)N[C@@H](CCCCN)C(=O)N1CCC[C@H]1C(=O)N[C@@H](CS)C(=O)N[C@@H](CCCNC(=N)N)C(=O)N[C@@H](CCCCN)C(=O)N1CCC[C@H]1C(N)=O", "target or system": "Candida albicans", "test": "broth microdilution", "test system": "SP 3902, RPMI-1640", "conditions": "48 h, 30 °C", "quantity": "MIC", "value": "32 µM"}
{"SMILES": "CC[C@H](C)[C@H](NC(=O)CN)C(=O)NCC(=O)N[C@@H](C)C(=O)N[C@H](C(=O)N[C@@H](CC(C)C)C(=O)N[C@@H](CCCCN)C(=O)N[C@H](C(=O)N[C@@H](CC(C)C)C(=O)N[C@H](C(=O)N[C@H](C(=O)NCC(=O)N[C@@H](CC(C)C)C(=O)N1CCC[C@H]1C(=O)N[C@@H](C)C(=O)N[C@@H](CC(C)C)C(=O)N[C@H](C(=O)N[C@@H](CO)C(=O)N[C@@H](Cc1c[nH]c2ccccc12)C(=O)N[C@H](C(=O)N[C@@H](CCCCN)C(=O)N[C@@H](CCCNC(=N)N)C(=O)N[C@@H](CCCCN)C(=O)N[C@@H](CCCNC(=N)N)C(=O)N[C@@H](CCC(N)=O)C(=O)N[C@@H](CCC(N)=O)C(N)=O)[C@@H](C)CC)[C@@H](C)CC)[C@@H](C)O)[C@@H](C)O)C(C)C)C(C)C", "target or system": "Listeria monocytogenes", "test": "CLSI broth microdilution", "test system": "KCTC 3710", "conditions": "18 h, 37 °C", "quantity": "MIC", "value": "2 µM"}
{"SMILES": "COc1ccc(C2=[N+]([O-])c3ccccc3N3CCN=C23)cc1", "target or system": "Fusobacterium nucleatum", "quantity": "MIC", "value": "0.06 to 0.125 µg/mL"}
{"SMILES": "CCCCCCCC(=O)NCCCC[C@H](NC(=O)CCCCCCC)C(=O)N[C@@H](CCCCNC(=O)CCCCCCC)C(=O)NCC(=O)NCC(=O)NCC(=O)N[C@@H](CS)C(=O)N[C@@H](CCCNC(=N)N)C(=O)N[C@@H](CCCCN)C(=O)N1CCC[C@H]1C(=O)N[C@@H](CS)C(=O)N[C@@H](CCCNC(=N)N)C(=O)N[C@@H](CCCCN)C(=O)N1CCC[C@H]1C(N)=O", "target or system": "Candida albicans", "test": "broth microdilution", "test system": "17546, RPMI-1640", "conditions": "48 h, 30 °C", "quantity": "MIC", "value": "8 µM"}
{"SMILES": "CC[C@H](C)[C@H](NC(=O)[C@H](CCCNC(=N)N)NC(=O)[C@H](CO)NC(=O)[C@H](Cc1ccc(O)cc1)NC(=O)[C@@H](NC(=O)[C@@H](NC(=O)[C@H](C)NC(=O)CNC(=O)[C@H](CCCCN)NC(=O)[C@H](CCCCN)NC(=O)CCNC(=O)CCCCCNC(=O)[C@H](CCCNC(=N)N)NC(=O)CCCCCNC(=O)[C@H](CCCNC(=N)N)NC(=O)[C@H](CCCNC(=N)N)NC(=O)CCCCCNC(=O)[C@H](CCCNC(=N)N)NC(=O)[C@H](CCCNC(=N)N)NC(=O)CCCCCNC(=O)[C@H](CCCNC(=N)N)NC(=O)[C@H](CCCNC(=N)N)NC(=O)CCCCCNC(=O)[C@@H](N)CCCNC(=N)N)C(C)C)[C@@H](C)O)C(=O)N[C@@H](CO)C(=O)NCC(=O)N[C@@H](CCC(N)=O)C(=O)N[C@@H](Cc1ccc(O)cc1)C(=O)N[C@@H](CCCCN)C(=O)O", "target or system": "Escherichia coli", "test system": "ATCC 25922", "conditions": "1 h, 37 °C, after 50% human serum", "quantity": "MIC", "value": "6 µM"}
{"SMILES": "CCCCCCCCCC(=O)NCCCC[C@H](NC(=O)CCCCCCCCC)C(=O)N[C@@H](CCCCNC(=O)CCCCCCCCC)C(=O)NCC(=O)NCC(=O)NCC(=O)N[C@@H](CS)C(=O)N[C@@H](CCCNC(=N)N)C(=O)N[C@@H](CCCCN)C(=O)N1CCC[C@H]1C(=O)N[C@@H](CS)C(=O)N[C@@H](CCCNC(=N)N)C(=O)N[C@@H](CCCCN)C(=O)N1CCC[C@H]1C(N)=O", "target or system": "Candida albicans", "test": "broth microdilution", "test system": "14936, RPMI-1640", "conditions": "48 h, 30 °C", "quantity": "MIC", "value": "16 µM"}
{"SMILES": "O=C1NC2(CC2)COc2ncc(F)cc2[C@H]2COCCN2c2ccn3ncc1c3n2", "test system": "Sprague-Dawley rat, male, adrenals", "conditions": "oral, 2.5 mg/kg/day, 4 weeks, end of treatment", "quantity": "organ-to-body weight ratio", "value": "0.017 ± 0.003%"}
{"note": "Excerpt of the above:"}
{"SMILES": "CCCCCCCC(=O)NCCCC[C@H](NC(=O)CCCCCCC)C(=O)N[C@@H](CCCCNC(=O)CCCCCCC)C(=O)NCC(=O)NCC(=O)NCC(=O)N[C@@H](CS)C(=O)N[C@@H](CCCNC(=N)N)C(=O)N[C@@H](CCCCN)C(=O)N1CCC[C@H]1C(N)=O", "target or system": "Candida albicans", "test": "broth microdilution", "test system": "SP 3876, RPMI-1640", "conditions": "48 h, 30 °C", "quantity": "MIC", "value": "> 128 µM"}
{"SMILES": "CC1(C)S[C@@H]2[C@H](NC(=O)[C@H](NC(=O)C3=C(O)C(c4ccccc4F)NC3=O)c3ccccc3)C(=O)N2[C@H]1C(=O)O (some centres unmarked)", "target or system": "Escherichia coli", "test": "broth microdilution", "test system": "Keio mutant JW0146-2", "conditions": "18 h, ferric hydroxamate uptake gene", "quantity": "MIC", "value": "12.5 µg/mL"}
